Results gathered from unrelated publications.
A part holds a random share of what one study measured. Changes are numbered by the printed parent chain.

Block 1 — technique: DHFR PCA, deep sequencing; matrix: yeast; with: (+)-ABA 710 µM; relative to: wild-type fitted maximum; reading: higher = stronger binding; measurement: relative binding score
Target: ABI1, truncated, D143A, DHFR fusion (Arabidopsis thaliana)
Setting: methotrexate growth selection, single substitutions
Starting sequence: PYL1, truncated, DHFR fusion (Arabidopsis thaliana); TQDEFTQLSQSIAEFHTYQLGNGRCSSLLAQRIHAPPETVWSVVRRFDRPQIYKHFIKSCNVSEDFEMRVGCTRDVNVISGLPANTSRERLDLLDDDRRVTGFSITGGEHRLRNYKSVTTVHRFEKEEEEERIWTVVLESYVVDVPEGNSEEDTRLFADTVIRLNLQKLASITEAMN; partner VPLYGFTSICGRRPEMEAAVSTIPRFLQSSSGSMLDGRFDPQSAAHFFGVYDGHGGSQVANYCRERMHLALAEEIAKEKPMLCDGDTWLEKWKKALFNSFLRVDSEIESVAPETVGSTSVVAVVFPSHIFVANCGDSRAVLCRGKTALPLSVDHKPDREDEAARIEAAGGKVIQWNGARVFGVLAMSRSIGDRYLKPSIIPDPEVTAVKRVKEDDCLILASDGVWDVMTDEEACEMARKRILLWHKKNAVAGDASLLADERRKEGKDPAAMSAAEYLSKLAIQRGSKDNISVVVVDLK
S63G: 103%
G71P: 71.2%
Q31D: 19.7%
L169T: 19.6%
S117Y: -13%
L164P: 15.1%
W134D: 102%
S59W: 91.6%
I79K: 103%
F5H: 107%
R98C: 96.9%
T1N: 105%
D144T: 86.2%
A175W: 91.3%
R132A: 113%
P36I: 91.3%
V40G: -10.8%
P50A: 60.9%

Block 2 — target: CEBPB, bZIP domain (human); technique: DHFR protein complementation; matrix: yeast; relative to: wild-type JUN-FOS pair; reading: higher = stronger binding; measurement: binding fitness
Setting: single substitutions, most at no-binding floor
Starting sequence: JUN, bZIP domain (human); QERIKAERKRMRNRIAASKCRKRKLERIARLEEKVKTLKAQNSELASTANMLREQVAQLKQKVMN; partner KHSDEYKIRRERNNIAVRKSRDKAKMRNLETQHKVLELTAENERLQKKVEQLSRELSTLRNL
L52C: -1.49 natural log
K39H: -1.33 natural log
L45D: -1.59 natural log
K34P: -1.5 natural log
V35L: -1.19 natural log
L31C: -1.47 natural log
A29Q: -1.29 natural log
E33N: -1.39 natural log
V56A: -1.52 natural log
A29N: -1.33 natural log
L52T: -1.52 natural log
L38P: -1.51 natural log
V56P: -1.52 natural log
T48E: -1.42 natural log
M51P: -1.5 natural log
K34R: -1.08 natural log
A57Q: -1.33 natural log
T37W: -1.24 natural log
T48F: -1.43 natural log
I28P: -1.26 natural log

Block 3 — technique: RNA Bind-n-Seq; form: RNA; matrix: in vitro; concentration: 365 nM; relative to: no-protein control; reading: higher = stronger binding; measurement: RBNS enrichment (R)
Target: RNA binding protein fox-1 homolog 2, RRM domain, GST-SBP tag (RBFOX2, Homo sapiens, UniProt O43251-10, residues 100-194)
Setting: natural RNA segment, single round, ends assumed
Residues (chain): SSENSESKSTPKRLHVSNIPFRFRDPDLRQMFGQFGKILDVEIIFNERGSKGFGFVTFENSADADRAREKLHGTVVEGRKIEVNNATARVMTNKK
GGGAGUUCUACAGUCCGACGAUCCAGUGUUUUUACGUUUUCAGUUUAAAGGACAAAGGGCGUGCUCUCUCAGUUUGCUGUAAGAUUGUAUUCUGUAGAUAUGUUUCCAUGUACAUAAAGGAAAAUAUAUAUCAUGGAAUUCUCGGGUGCCAA: 1.27
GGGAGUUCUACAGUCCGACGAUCAAAGAUUUUUAACCCAUUCAUUCUUAGUGUGAAUUUUCUAAAAUAGAAGUAUAAAAAAAAAGUCUCUAUAAUCUGAUAGGAAACCGUCUUUUCCCAAGUGAAUUCCCUUUUGGAAUUCUCGGGUGCCAA: 0.442
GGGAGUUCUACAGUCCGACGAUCGGGGAAUACAGCUCUCAGUGAUCAGCAGGGAGUUUAUUUGAGGACAUCAGUCACCUUUGGGGUUGCCAUGUACAAUGAGAUUUAUAAUCAUGAUACUCUUCGGUGGUAGUUGGAAUUCUCGGGUGCCAA: 0.446
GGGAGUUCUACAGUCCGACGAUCCUCUAGAGGCCAAGCAUCUGAUGAAAAGAGCCUGCCUAGAGAUUUUAUUCCGGCAGCACAUAAACAGAUGACUCAUGCUGUGAGAGGUAAGACAGUGUGUAGCAGCCCUGUGGAAUUCUCGGGUGCCAA: 0.384
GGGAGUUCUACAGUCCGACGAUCAUCAAAAAUCAAAGUGAAAUAAUACCAUCCAGCACUUAACUCUCAGGUCCCAACUAAGUCUGGCCUGAGCUAAUUUAUUUGAGCGCAGAGUGUAAAAUUUAAUUCAAAAUUGGAAUUCUCGGGUGCCAA: 0.409
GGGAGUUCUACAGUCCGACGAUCCAUUUACUAUGAAUUUACUUCCUCCCAAGAAUUUGGACUGGCCGUCAGACUGUUGCUACAUACAAUUGCCUUUGUAUCUUCGUAUGAAAUAAAAGGUCAUUUGUUCCUGUUGGAAUUCUCGGGUGCCAA: 0.421
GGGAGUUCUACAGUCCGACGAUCCCUGAUGAUGGUGGCUGUAAUAUGUUGAGUUCAGUUUACUAAAGGUUUUACUAUUAUGGUUUGAAGUGGAGUCUCAUGACCUCUCAGAAUAAGGUGUCACCUCCCUGAAAUGGAAUUCUCGGGUGCCAA: 0.555
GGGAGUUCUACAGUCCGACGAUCCAAGACAGCAGGUGCCACGGCCCGCCCCGCCUGCCAGCCCGAAUUCCCGUUCUCCUGUGUCUACUAACAAGGACAUGGGGGUGGGCGGUGACCUCCGCAUCCCUCAGAGCUGGAAUUCUCGGGUGCCAA: 0.539
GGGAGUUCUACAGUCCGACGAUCCGUGUCCUGCCACUAUGCCUGUAUUGCUGAGUGCCACCCAAGUCCUCUAUUUGGCUGUAGUCUGCUCUGGGGCUUUCACUGUCAGUCUGGGGCAUGGGCUGAGCAAGUAUUGGAAUUCUCGGGUGCCAA: 0.642
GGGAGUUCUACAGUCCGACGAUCAAUAAUUUUAAUGAUUCUUAAGCUAUUUGAAGGAAAGAAUAUGGAUUUCUCAUGUCUUGAGGUUUUGUUCAUGCCCCUAUGACUGACCAAUGUGAUAAGGACUUUAAAAAUGGAAUUCUCGGGUGCCAA: 0.577
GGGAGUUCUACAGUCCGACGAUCAACUUUCGUUUUGGAGUGUUCAUUUUCUGAACUUGACCCUCACAUUGUAGGGGUGCAGUUUGUCCAACUCUUUCCAACAGCCCAUUAGACACCACUAGCUGGAUAUUUCAUGGAAUUCUCGGGUGCCAA: 0.276
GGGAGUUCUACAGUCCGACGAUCGCCCACCCUAUUCUAAGGAACCACAAUAACUUACUCUGGCCCCAGUGUUAAAACGAUCUUUCAGAUUUAGAGUGACUAUGUAAGAAUUUAGGAUUUCCUCUUUUCCAGGCUGGAAUUCUCGGGUGCCAA: 0.271

Block 4 — technique: protein-binding microarray; form: double-stranded DNA, one strand shown; matrix: in vitro; concentration: 940 nM top; setting: 60-bp whole probe; with: salmon DNA 0.4 mg/ml; relative to: random background probes; reading: higher = stronger binding; measurement: fitted relative affinity; shared flanks, not repeated: GCCTAGCAC … GTCTTGATTCGCTTGACGCTGCTG
Target: Interferon regulatory factor 5, full length, phosphomimetic (IRF5, Homo sapiens, UniProt Q13568-2, residues 1-514, S451D/S453D/S456D/S462D)
GACGGTTACGGTTTCGGGACGTGCTAG: 3.44 z-score
TTAGAACTGAGCATCGATTAGTGCTAG: -0.337 z-score
ATTGTTTTCAGTTTCACTGCGTGCTAG: 4.24 z-score
TTAGGTCTCGGTATCGGTTGGTGCTAG: 7.03 z-score
TTAGATATCGAGACTGGATTAGTGCTA: 0.907 z-score
GACGGTCTCGGACTGGGAACGTGCTAG: 0.549 z-score
GGATTGCAACCCCTCAAAAAGTGCTAG: -0.176 z-score
TCAGGTTTCGGTATCGGTTAGTGCTAG: 14.2 z-score
TTTGGTATCGACTTTCGGTTAGTGCTA: 9.12 z-score
TTAGAAATCGGGTTTCGATTAGTGCTA: 5.86 z-score
GACGATATCGGGTTTAGAGACGTGCTA: -0.315 z-score
GACGAACTGAGTTTCTAGACGTGCTAG: 0.515 z-score
TACGGTTTCGGGTATCGGGACGTGCTA: 8.77 z-score
GACGGTTTCGGGTTTCCGGACGTGCTA: 9.44 z-score
TCAGCTTTCCTCGTGATACTGTGCTAG: 0.364 z-score
TGATTGGTTGAACATGAACTGTGCTAG: -0.192 z-score
TCAGCTTTCTCTTTCATACTGTGCTAG: 2.41 z-score
TCACCAATGCTTCTGGTACTGTGCTAG: -0.454 z-score
CTGAGAATGGGGTTTGCAGCCGTGCTA: 0.148 z-score
GAGGGACTGCTTTTCCTGACGTGCTAG: -0.215 z-score
AAGTTTCTCCTTTGTAAATAGTGCTAG: 4.53 z-score
TCACTTTTATTTTCAGTACTGTGCTAG: 1.82 z-score
GACGAACTGAGACTGGAAACGTGCTAG: -0.331 z-score

Block 5 — target: CCND3, cyclin fold, Cln2 fusion (human); technique: yeast growth competition, sequencing; matrix: yeast; setting: weak parent motif; relative to: not given; reading: higher = stronger binding; measurement: normalised enrichment score
Starting sequence: PKN2 docking peptide (human); VSAVRKLDFSDTM; partner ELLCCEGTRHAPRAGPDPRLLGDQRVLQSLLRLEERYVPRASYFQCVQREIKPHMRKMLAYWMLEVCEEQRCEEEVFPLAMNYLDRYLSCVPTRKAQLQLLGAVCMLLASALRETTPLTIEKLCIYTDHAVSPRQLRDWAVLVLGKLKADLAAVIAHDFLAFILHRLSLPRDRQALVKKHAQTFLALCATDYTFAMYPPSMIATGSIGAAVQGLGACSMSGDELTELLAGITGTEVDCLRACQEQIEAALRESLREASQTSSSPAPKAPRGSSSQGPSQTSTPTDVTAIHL
VSAVWKLDFSDTM [R5W]: 0.0242
VSAVRKLDFPDTM [S10P]: 0.838
VSAVRKLDFSDMM [T12M]: 0.802
VSAVRKLDFSDWM [T12W]: 0.543
VSAQRKLDFSDTM [V4Q]: 0.707
VSAVPKLDFSDTM [R5P]: -0.213
VSAVRKLDFSNTM [D11N]: 0.513
VSAVRTLDFSDTM [K6T]: 0.648
VSAVRKLDFVDTM [S10V]: 0.34
VSAVFKLDFSDTM [R5F]: 0.0209
VSAVMKLDFSDTM [R5M]: 0.466
VSAVRKLAFSDTM [D8A]: 0.36
VSQVRKLDFSDTM [A3Q]: 0.17
VSAVRKLRFSDTM [D8R]: 0.363
VQAVRKLDFSDTM [S2Q]: 0.577
VRAVRKLDFSDTM [S2R]: 0.798

Some of these lines once more (block 4):
TTAGAACTGAGCATCGATTAGTGCTAG: -0.337 z-score
ATTGTTTTCAGTTTCACTGCGTGCTAG: 4.24 z-score
TTAGGTCTCGGTATCGGTTGGTGCTAG: 7.03 z-score
TTAGATATCGAGACTGGATTAGTGCTA: 0.907 z-score
GACGGTCTCGGACTGGGAACGTGCTAG: 0.549 z-score
GGATTGCAACCCCTCAAAAAGTGCTAG: -0.176 z-score
TCAGGTTTCGGTATCGGTTAGTGCTAG: 14.2 z-score
TTTGGTATCGACTTTCGGTTAGTGCTA: 9.12 z-score
TTAGAAATCGGGTTTCGATTAGTGCTA: 5.86 z-score
GACGATATCGGGTTTAGAGACGTGCTA: -0.315 z-score
GACGAACTGAGTTTCTAGACGTGCTAG: 0.515 z-score
TACGGTTTCGGGTATCGGGACGTGCTA: 8.77 z-score
